Measured values pooled from the literature.
Compare with care: the assays were run in different laboratories. Values joined by “and” are separate records of one study, mostly repeats; a detail may differ. ± marks the error that the study gave.

| Structure (SMILES) | assay | test system | setting | endpoint | value |
| --- | --- | --- | --- | --- | --- |
| CC(C)n1ncc2c(C(=O)NC[C@@H](C)N)cc(C3CC3)nc21 | – | mouse BALB/c female, plasma | intraperitoneal, 30 mg/kg, 0.5 h | plasma concentration | 1070 ng/mL and 1380 ng/mL and 1140 ng/mL and 1370 ng/mL |
| CC[C@H](C)[C@H](NC(=O)[C@H](CCCNC(=N)N)NC(=O)[C@H](Cc1c[nH]cn1)NC(=O)[C@@H](N)[C@@H](C)O)C(=O)N[C@@H](CC(C)C)C(=O)N[C@@H](CCCNC(=N)N)C(=O)N[C@@H](CCCNC(=N)N)C(=O)N[C@@H](CC(C)C)C(=O)N[C@@H](Cc1ccccc1)C(=O)N[C@@H](CC(N)=O)C(=O)N[C@@H](CC(C)C)C(=O)N[C@@H](CS)C(N)=O | – | male C57BL/6J mouse, plasma | intraperitoneal | plasma half-life | < 10 min |
| O=c1c(-c2cnn(-c3ccccc3)c2)c(C(F)(F)F)oc2c(O)c(O)ccc12 | – | mouse | intraperitoneal, 100 mg/kg, DMSO vehicle | plasma clearance | 231 mL/min/kg |
| O=C1CCC(N2Cc3cc(C(=O)O)c(F)cc3C2=O)C(=O)N1 (centres unmarked) | – | CD-1 mouse, male | oral, 10 mg/kg parent drug, 2 h | plasma concentration | 142 ± 109 ng/mL |
| [2H]C([2H])(N)C([2H])([2H])NC(=O)c1cc(C2CC2)nc2c1cnn2C(C)C | – | mouse BALB/c female, plasma | intraperitoneal, 50 mg/kg, 4 h | plasma concentration | 911 ng/mL and 1110 ng/mL and 920 ng/mL and 1390 ng/mL |
| CC1(C)CC[C@@]2(CO)C(=C3C=C[C@@H]4[C@@]5(C)CC[C@H](O)[C@@](C)(CO)[C@@H]5CC[C@@]4(C)[C@]3(C)C[C@@H]2O)C1 | UHPLC-MS/MS | mouse, plasma | oral, 50 mg/kg of saikosaponin a, 1 h | plasma concentration | 0 ng/mL |
| C=CC(=O)N1CCCC(n2c(=O)c3ncccc3n(Cc3ccc(Oc4ccccc4)cc3)c2=O)C1 (centres unmarked) | – | male BALB/c mouse, plasma | intraperitoneal, 200 mg/kg, 0.0833 h | plasma concentration | 32100 ng/mL |
| Cc1ccc(OCC(=O)N(Cc2cccs2)c2ccn[nH]2)cc1 | – | mouse, CD-1, male, plasma | oral, 30 mg/kg, 0.5 h | plasma concentration | 222 nM |

For quick reference, copied from above:
| Structure (SMILES) | assay | test system | setting | endpoint | value |
| --- | --- | --- | --- | --- | --- |
| CC[C@H](C)[C@H](NC(=O)[C@H](CCCNC(=N)N)NC(=O)[C@H](Cc1c[nH]cn1)NC(=O)[C@@H](N)[C@@H](C)O)C(=O)N[C@@H](CC(C)C)C(=O)N[C@@H](CCCNC(=N)N)C(=O)N[C@@H](CCCNC(=N)N)C(=O)N[C@@H](CC(C)C)C(=O)N[C@@H](Cc1ccccc1)C(=O)N[C@@H](CC(N)=O)C(=O)N[C@@H](CC(C)C)C(=O)N[C@@H](CS)C(N)=O | – | male C57BL/6J mouse, plasma | intraperitoneal | plasma half-life | < 10 min |
